{"data": "Measured values collected from several papers", "note": "Numbered parts are unrelated; each lists some results of a single study. Substitutions count along the parent as printed.", "sequence of UniProt Q9UNE7 (whole entry, looked up)": "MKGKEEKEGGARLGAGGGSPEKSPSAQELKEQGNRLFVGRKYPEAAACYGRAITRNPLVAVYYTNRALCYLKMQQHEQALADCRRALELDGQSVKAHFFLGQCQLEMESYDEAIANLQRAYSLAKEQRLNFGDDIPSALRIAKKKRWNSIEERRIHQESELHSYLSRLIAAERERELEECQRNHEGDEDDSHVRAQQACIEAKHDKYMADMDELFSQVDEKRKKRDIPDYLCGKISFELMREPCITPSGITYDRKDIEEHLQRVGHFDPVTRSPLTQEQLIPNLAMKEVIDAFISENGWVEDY", "sequence of UniProt Q9BY78 (whole entry, looked up)": "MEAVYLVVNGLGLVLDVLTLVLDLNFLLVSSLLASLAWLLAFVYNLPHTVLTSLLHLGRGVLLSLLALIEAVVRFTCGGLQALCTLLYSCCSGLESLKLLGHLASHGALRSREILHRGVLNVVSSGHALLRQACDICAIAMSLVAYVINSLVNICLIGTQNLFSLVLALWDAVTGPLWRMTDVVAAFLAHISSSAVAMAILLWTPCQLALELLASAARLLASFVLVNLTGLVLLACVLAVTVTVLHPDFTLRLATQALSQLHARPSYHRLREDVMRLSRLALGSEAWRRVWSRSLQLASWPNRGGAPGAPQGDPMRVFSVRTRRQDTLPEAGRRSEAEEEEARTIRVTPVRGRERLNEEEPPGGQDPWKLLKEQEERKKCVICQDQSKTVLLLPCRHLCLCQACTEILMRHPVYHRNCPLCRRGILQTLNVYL", "sequence of UniProt O43567 (whole entry, looked up)": "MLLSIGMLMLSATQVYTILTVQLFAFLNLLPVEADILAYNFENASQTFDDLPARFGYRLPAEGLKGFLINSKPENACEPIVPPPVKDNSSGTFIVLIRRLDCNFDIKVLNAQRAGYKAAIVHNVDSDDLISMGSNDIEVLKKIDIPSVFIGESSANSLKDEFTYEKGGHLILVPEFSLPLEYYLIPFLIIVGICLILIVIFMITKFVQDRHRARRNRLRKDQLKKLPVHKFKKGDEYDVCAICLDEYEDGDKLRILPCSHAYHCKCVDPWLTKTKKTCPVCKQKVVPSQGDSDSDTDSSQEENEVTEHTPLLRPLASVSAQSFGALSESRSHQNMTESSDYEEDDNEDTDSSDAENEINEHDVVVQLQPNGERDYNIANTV"}
{"data": "Sample 1", "target": "CCNE2, cyclin fold, Cln2 fusion (human)", "method": "yeast growth competition, sequencing", "sample": "yeast", "notes": "strong parent motif", "baseline": "not given", "direction": "higher = stronger binding", "starting sequence": "viral docking peptide; YKVKRRLVFGADD"}
{"Variant": "F9L", "normalised enrichment score": 1.37}
{"Variant": "A11I", "normalised enrichment score": 5.59}
{"Variant": "R5G", "normalised enrichment score": 0.581}
{"Variant": "V8P", "normalised enrichment score": 0.9}
{"Variant": "A11R", "normalised enrichment score": 5.63}
{"Variant": "F9I", "normalised enrichment score": 0.813}
{"Variant": "F9M", "normalised enrichment score": 1.39}
{"Variant": "G10C", "normalised enrichment score": 5.1}
{"Variant": "V8C", "normalised enrichment score": 5.07}
{"Variant": "F9Y", "normalised enrichment score": 1.61}
{"Variant": "R6V", "normalised enrichment score": 4.33}
{"Variant": "L7D", "normalised enrichment score": 0.214}
{"Variant": "V3C", "normalised enrichment score": 4.58}
{"Variant": "K4W", "normalised enrichment score": 1.02}
{"Variant": "V3D", "normalised enrichment score": 0.392}
{"Variant": "D12C", "normalised enrichment score": 5.35}
{"Variant": "G10Q", "normalised enrichment score": 4.95}
{"Variant": "K2C", "normalised enrichment score": 5.58}
{"Variant": "R6P", "normalised enrichment score": 0.269}
{"Variant": "F9T", "normalised enrichment score": 0.803}
{"Variant": "V8G", "normalised enrichment score": 1.48}
{"Variant": "R6C", "normalised enrichment score": 2.03}
{"Variant": "G10W", "normalised enrichment score": 3.28}
{"Variant": "V8E", "normalised enrichment score": 5.38}
{"Variant": "A11C", "normalised enrichment score": 5.68}
{"data": "Sample 2", "target": "Prothrombin, mature alpha-thrombin (F2, Homo sapiens, UniProt P00734)", "method": "aptamer microarray, sandwich", "molecule type": "DNA with 2'F-ANA", "sample": "in vitro", "tested at": "200 nM", "notes": "whole 15-mer aptamer, many near background", "with": "Cy3 exosite-II aptamer, 400 nM", "direction": "higher = stronger binding", "strand": "GGTTGGTGTGGTTGG"}
{"Modification": "2'F-ANA at 4 7 10 11 13 15", "mean fluorescence intensity [a.u.]": 70.9}
{"Modification": "2'F-ANA at 1 4 5 7 9 10 15", "mean fluorescence intensity [a.u.]": 44.5}
{"Modification": "2'F-ANA at 1 2 3 4 7 8 10 11 12 13 15", "mean fluorescence intensity [a.u.]": 100}
{"Modification": "2'F-ANA at 1 2 5 6 8 9 10 11 12 13 14", "mean fluorescence intensity [a.u.]": 51.7}
{"Modification": "2'F-ANA at 1 2 4 6 8 9 10 11 12 14", "mean fluorescence intensity [a.u.]": 87}
{"Modification": "2'F-ANA at 2 8 10 15", "mean fluorescence intensity [a.u.]": 137}
{"Modification": "2'F-ANA at 1 2 6 9 10 12", "mean fluorescence intensity [a.u.]": 72.8}
{"Modification": "2'F-ANA at 2 4 5 7 8 9 15", "mean fluorescence intensity [a.u.]": 75.9}
{"data": "Sample 3", "target": "UBE2D2 UBC core domain (UniProt P62837)", "method": "yeast two-hybrid", "sample": "yeast", "notes": "mostly zero background", "baseline": "not given", "direction": "higher = stronger interaction", "sequence of UniProt P62837 (whole entry, looked up)": "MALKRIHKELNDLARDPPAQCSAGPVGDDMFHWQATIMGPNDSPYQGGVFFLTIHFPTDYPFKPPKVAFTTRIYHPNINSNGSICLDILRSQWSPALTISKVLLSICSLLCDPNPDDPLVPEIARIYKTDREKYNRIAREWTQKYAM"}
{"Molecule": "RNF26 RING domain (UniProt Q9BY78)", "lacZ reporter activity": 9450}
{"Molecule": "STUB1 RING domain (UniProt Q9UNE7)", "lacZ reporter activity": 0}
{"Molecule": "RNF13 RING domain (UniProt O43567)", "lacZ reporter activity": 13100}
{"data": "Sample 4", "target": "Transcription factor Sp1 (SP1, Homo sapiens, UniProt P08047, residues 1-785, full length assumed)", "method": "protein-binding microarray", "molecule type": "double-stranded DNA, one strand shown", "sample": "in vitro", "tested at": "not given", "notes": "k-mer, scored over probes, only values ≥0.25", "direction": "higher = stronger binding", "sequence of UniProt P08047 (whole entry, looked up)": "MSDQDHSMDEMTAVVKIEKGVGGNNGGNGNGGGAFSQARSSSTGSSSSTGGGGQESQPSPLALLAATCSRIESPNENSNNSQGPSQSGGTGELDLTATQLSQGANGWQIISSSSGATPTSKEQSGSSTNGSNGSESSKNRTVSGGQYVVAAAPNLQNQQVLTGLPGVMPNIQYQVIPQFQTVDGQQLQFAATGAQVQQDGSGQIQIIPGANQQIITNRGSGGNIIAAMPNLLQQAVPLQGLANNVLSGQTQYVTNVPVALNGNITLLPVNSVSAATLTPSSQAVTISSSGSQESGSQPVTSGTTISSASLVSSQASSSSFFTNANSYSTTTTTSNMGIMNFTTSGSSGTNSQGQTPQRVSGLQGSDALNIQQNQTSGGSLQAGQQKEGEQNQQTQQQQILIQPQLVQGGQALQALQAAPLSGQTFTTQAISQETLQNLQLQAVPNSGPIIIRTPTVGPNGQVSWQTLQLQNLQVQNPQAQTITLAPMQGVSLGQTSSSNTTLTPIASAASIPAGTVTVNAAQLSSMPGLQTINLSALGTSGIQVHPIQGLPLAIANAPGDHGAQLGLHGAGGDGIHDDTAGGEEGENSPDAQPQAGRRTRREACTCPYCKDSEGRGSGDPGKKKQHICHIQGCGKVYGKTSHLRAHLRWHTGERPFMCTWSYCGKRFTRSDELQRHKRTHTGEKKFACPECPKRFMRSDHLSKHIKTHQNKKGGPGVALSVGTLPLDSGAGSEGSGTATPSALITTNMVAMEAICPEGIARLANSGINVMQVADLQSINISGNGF"}
{"Strand": "CCCCCATA", "E-score": 0.256}
{"Strand": "AGGGATGG", "E-score": 0.291}
{"Strand": "ACCCACCT", "E-score": 0.264}
{"Strand": "AACCTCCC", "E-score": 0.269}
{"Strand": "GAGGGGCC", "E-score": 0.297}
{"Strand": "ACATACAT", "E-score": 0.287}
{"Strand": "CCCGCCGC", "E-score": 0.265}
{"Strand": "AACCCCTT", "E-score": 0.308}
{"data": "Sample 5", "target": "Hepatocyte nuclear factor 3-alpha (Foxa1, Mus musculus, UniProt P35582, residues 1-468, full length assumed)", "method": "EMSA with sequencing", "molecule type": "double-stranded DNA, one strand shown", "sample": "in vitro", "tested at": "10 and 20 nM", "notes": "whole designed probe, mean of two concentrations, ends assumed", "baseline": "negative control set to 0", "direction": "higher = stronger binding", "all sequences stand within": "GTGAGCGGTGCCCATTGATGGGGAAC … TTTCACTGGGATCGTGGGGAC", "Construct (chain)": "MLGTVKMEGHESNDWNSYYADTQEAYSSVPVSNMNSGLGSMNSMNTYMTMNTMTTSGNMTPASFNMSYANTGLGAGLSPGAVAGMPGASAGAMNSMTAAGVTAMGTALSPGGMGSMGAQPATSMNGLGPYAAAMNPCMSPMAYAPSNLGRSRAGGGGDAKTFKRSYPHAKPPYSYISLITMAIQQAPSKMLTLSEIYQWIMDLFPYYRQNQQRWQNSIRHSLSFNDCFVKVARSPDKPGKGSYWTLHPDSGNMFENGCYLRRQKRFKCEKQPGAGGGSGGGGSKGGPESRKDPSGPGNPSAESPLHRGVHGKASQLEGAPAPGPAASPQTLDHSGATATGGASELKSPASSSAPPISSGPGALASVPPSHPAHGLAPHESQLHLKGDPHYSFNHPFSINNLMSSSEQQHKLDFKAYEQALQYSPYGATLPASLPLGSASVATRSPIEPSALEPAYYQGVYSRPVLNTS"}
{"Strand": "CCCCTCTTTCAGGTTGGGCCCTATAACTTCACCATTTGCAGCTTAGAGGATTTTATTGTCACCCTTGGCTTCCATTAGAGTAAATCATTCTTTGTTTACATTGTTACAATATGTACAGTCTTTATGTAAAATCATGTTACAGTAGCATGATTTTTTAAAGAAAATTGTTTATTCTTTTAAAAACCTTTTAAAA", "normalised bound fraction": "0.485 ratio"}
{"Strand": "AGCAAGGCTTTAAAAGTGAGGTCTTTCAGTTTAGATGCAAAAAGGGTGGTTCTGTTGAGTCAACCCAGCTATTTCACTACATAGATTCGTATTGTAAACACCTAGAATGAGGTAGCTGGAGTGCAAATCTAAATGGCTTGTGACAGTTAAGGAAGTACATAGGCAACAGTTACTGGTTTTCTTGATGCAGCTG", "normalised bound fraction": "0.0519 ratio"}
{"Strand": "TCCTTTATCCCAACATGTTTATACAGACAAAACCAGGTTAAAATCGACACAAGGTCAACTTGAAATGGGGAAAGACGTAGGTGACGTCACAAAATAAACATGAAGTCTTGTGTACAAGCATCTGCAGAAGAGTTCAGCCTCACCACTTGGGTAATGCTGTTGGAATGTGGTCTGGGTTCACTGTATTTGAATG", "normalised bound fraction": "0.378 ratio"}
{"Strand": "ATCTTCCCCCTCTTCCTTGCCCCACCAGATGGCGTTCTATTCCTCCCTGCAGATAGGAAAATAAATAAAGCCGGCATTCGTTAACCCTCTTCTGGCGCAAACTGCTGTTTGCTCTGGATGAATCATGGTCCTTTGGCGACGCCAGGCTCCGGGAGAGCAAAGCACCGTGTCAGGGCCATGATCCGGGGTGGCC", "normalised bound fraction": "0.316 ratio"}
{"Strand": "GTGGAAGAAGCAAATTATTTTTGTGTTAAAATGGATATTATCAACTGCAAAGAAAAAGGTGAATATTTCACAAGTGAGCCAGAACATTTACAGTGTAAACAAGAGCAGTTGCTACCTTTGCTTTTTTTTTCCCACTTCTTCAATATGATCACCATGCTTTTCATTACCCTGCTACTCAGTATTTCTAGTCAAC", "normalised bound fraction": "0.328 ratio"}
{"Strand": "ACCAAAGTATCACAGGGAGAGATGGGCCTCTTGGGGCAGCAGCAGCAGCTGAAGCAGGCTGACTCACAGCTGCTTCTAATATGCTAGGCTTTGTGTAAACAGGCTTTATGACACAAGTGGGCTGACTACAGTGCAATTGGAGTGTGGCATCTGAGTCACTGTGAGGCTCTAGCTGGCTTCTTCCAGCCCTGGC", "normalised bound fraction": "0.308 ratio"}
{"Strand": "AGGTGGGGTAAGGGATGTGTACTCTTTCAAGGAGTGGGAGAATTATTCTAGCGAATGTTTGTGTTGTCCCAGTTCTGTTTACAAAGCCTCGTCATGTTTACAGATGGCTGCGCAATTCATTACCTCATTTAACTCTCATGTACCTCCTCTGAGGGAGTAAGAGCTGTTACAGCCAAGTTTAGGTCAGTAAATA", "normalised bound fraction": "0.379 ratio"}
{"Strand": "TTTGAAATTTAGGAAAAGTTAATATGAATGAGAGAAAAATAACCAAAAAGAAATAGCAATTATTCCTTACTAATGTTATTTTTCTGTCTGCAAAGTAAACATAGTAAAAGAAATTTTTCACTTTAAGTTATGAAAGTTGACACTATTATCTATAATTTTTACATGTGCCTCTATTATATGTCCTCTAGCCTTT", "normalised bound fraction": "0.411 ratio"}
{"data": "Other studies, line by line"}
{"Sequence": "MPDTLFEGV", "target": "HLA class I histocompatibility antigen, A alpha chain, allele A*25:01 (Homo sapiens, UniProt P04439)", "test": "peptide-MHC binding", "system": "peptide", "conditions": "concentration not given", "endpoint": "binding", "value": "inactive"}
